Assay results from different studies.
Parts stem from different laboratories: compare values within a part only.

Series 1 — technique: RNA Bind-n-Seq; form: RNA; matrix: in vitro; tested at: 365 nM; relative to: no-protein control; direction: higher = stronger binding; quantity: RBNS enrichment (R)
Target: RNA binding protein fox-1 homolog 2, RRM domain, GST-SBP tag (RBFOX2, Homo sapiens, UniProt O43251-10, residues 100-194)
Setting: natural RNA segment, single round, ends assumed
Constant ends, left off below: GGGAGUUCUACAGUCCGACGAUC … UGGAAUUCUCGGGUGCCAA
Residues (chain): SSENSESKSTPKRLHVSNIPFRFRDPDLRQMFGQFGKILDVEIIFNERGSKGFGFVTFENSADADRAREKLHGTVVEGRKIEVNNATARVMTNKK
UUAUGCAACAUGCAGAAUGCUGUUUUUAGCCUUGUUUUACCAGAGUUGUUUUUUUUUUCAGUUAUUUCUUCAAGGGAAACUAAAUGAUUUAGUUGGAGCAAAGCUUUAAG: 0.405
CUCCAAAACCCAUGAACACGGCCAAAACCCAUAAAAACAACAAAAGCAAACUAAGUCAAGAACCGUAGUAUCUGUAGGCACUUAGUUAAGUAUAGCAACUCAAACCAGAC: 0.896
UCCUCCAUCAGAUGCCUGGGCCUCCUCCAUCAGAUGCCUAGGCCUCCUCCAUCAGAUGUCUGGGCCUCCUCCAUCAGAUGCCUGGGCCUCCUCCAUCAGAUGCCUGGGCC: 0.425
GUACCCACUCGAGUUGUGCCGUGCACAACCUGUCCAGUAUAUGCAUGUGGUGGCCCUACUGACUGGUAAUGGUUAGAGGCAUUUAUGGAUUUUUAGCUUUGAGGAAAAAC: 9.17
AAAAGUUUAUUCCAUUUAUUUUAGUUUGUGUUUACUUGAUUUUGAGGAAGAAAAUAUUUGACUUUGUGUAAAGAGUAGGGUAUCAGGGUGUCUUUUCUGCCGUGGGAGAU: 0.656
CGUAAAAGCCAUGAAUGCUGGAAUCCAAAACUGACGAGGUUUAUUUUUUUCAGAGCCAGUGGCUGGUCUUCCAUUUACAGUGUCACUAUUCCCUGACGGAGCUGUUAUGU: 0.239
AUGAUGCCCAUAAUUGCAAGACUAUUCCUGUAAAAAUAACAAUUAUUGGGUAAUAACUUCAAGAGGAAUGAGAAGUGACAAAAUUGAUUUAAAAUAUUGUUCUACUUAUA: 0.655
GAGCUUUGGACACAGGACCAGUUUGAUAAAGGGCCAGGUAAGGGUUUCCACUCUGCACAUUGUAGAGGGGACACCGAAGGCCCAUGGGUCCCUAAUUAAAGAAGUUGAGU: 1.26
AGUGUUUUCUAUGAAGAUAAAUGGAUACUUCCUAAGUGGUGCCCUCAGAACCUGUGCACUCAUUUGCCCAGCAUUUCCUAGUGUCUAUUGGAUCAGAAACUGGUUUUACC: 0.388
AGCCUAGUACCUACGAAGCUAUUUCUUUACCAAAGUCUCUUGCUUCUGCUUAUGGUCGUGAGCUGAUCACGCAGUUUGCUAGAUGAUUUGACACUGGUGGUGAGUUCUUU: 0.276
AGCAAGAAGCCUGGUAAAACUGUGACUUUUCCCCAAACGUCAAUCUUUAUUAGAAAGCAUUUUCUAGGUGUGUUUAGUGUACAAAGAGACUUUAUAACCCUUACUGGACA: 0.378
AGUAGAGUUGUUGUUUGGGGUACAAGAUGAGAAGAAAGAAAAACCUACAGCCUUUCUACAUUCUGACAUGCUAACAGUGGUUUAAGUUUCUAAAGUGUUUACCAGAUGCU: 0.648

Series 2 — technique: RNA Bind-n-Seq; form: RNA; matrix: in vitro; tested at: not given; relative to: input RNA pool; direction: higher = stronger binding; quantity: bound/input enrichment
Target: RING finger protein unkempt homolog, zinc fingers 1-6, GST-SBP tag (UNK, Homo sapiens, UniProt Q9C0B0, residues 30-357)
Setting: RNA with constant flanks, human and mouse sites, ends assumed
Constant ends, left off below: GGGAGUUCUACAGUCCGACGAUC … CAACAGAGGAUUGAGCAUCA
Residues (chain): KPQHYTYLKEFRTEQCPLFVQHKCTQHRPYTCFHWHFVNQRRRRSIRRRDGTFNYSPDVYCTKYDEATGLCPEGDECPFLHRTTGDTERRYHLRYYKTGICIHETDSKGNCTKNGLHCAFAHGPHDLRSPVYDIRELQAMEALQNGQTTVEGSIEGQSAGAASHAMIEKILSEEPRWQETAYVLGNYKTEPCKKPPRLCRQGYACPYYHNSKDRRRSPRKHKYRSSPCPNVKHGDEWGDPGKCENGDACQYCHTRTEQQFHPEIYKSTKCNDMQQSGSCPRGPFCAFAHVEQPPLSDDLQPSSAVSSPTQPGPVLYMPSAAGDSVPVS
ACUGAAAUACUUAAUGAGCAAUUACUUGAUUUUUAAUGAUGACUUCGAAGGAGUCAUCACUAGGUGCUUUGUCCUUUUUGUAUUCUAGUUGCACCCACCUCUUGGAUUGGAUAUAGCAAU: 3.92 ratio
CUUGUGCAUGCCCCACCUAUGCAACUGGGAUUCCCAUCCCUGCACUCGUUCAUCAAGGAACAUAGUCUUCAGGUAUCCCCCAGCUUAGAGAAAGGGGCUAAGGCAGACACAGGCCUUGAU: 0.262 ratio
AAUGAUGAAGUAACAAUAAAGUAUAAAGAUGAAGAUGGAGAUCUUAUAACAAUUUUUGAUAGUUCUGACCUUUCCUUUGCAAUUCAGUGCAGUAGGAUACUGAAACUGACAUUAUUUGUU: 0.314 ratio
AAUAGAGAUUUGUCCACACCUGGCCUGGAGAAGGACAGUGGAGGGAAGACACCUGGUGACUUUAGCUAUGCCUAUCAAAAGCCUGAGGAAACAACCAGGUCCCCAGAUGAAGAAGAUUAU: 0.259 ratio
ACAAAGCAGCUGACAGAAAUGCUUCCCAGCAUCCUCAACCAGCUUGGUGCAGACAGCCUGACUAGUUUAAGGAGACUGGCUGAAGCUCUGCCCAAACAAUCUGUGGAUGGAAAAGCACCC: 0.071 ratio
AUCAUUGGUUAUGCCAGAAACCCUUCGCUGAAGCAGCAGCUGUUCUCAUAUGCUAUCCUGGGAUUUGCCUUGUCUGAAGCUAUGGGUCUCUUUUGUUUGAUGGUUGCUUUCUUGAUUUUG: 0.196 ratio
AGCACUGCCAGUCCCAAGGAGAAUUACACUCAAAAUACCAUCCAAGUGGCCAUUCAGAGUUUACGUUUCUUCAACAGCUUUGCAGCUCUUCAUCUGCCUGCUUUUCAGUCUAUUGUAGGG: 0.0795 ratio
AGCAAGUUUUACAGCUUUAAUGCUCUGGCUUUCUUUACUUUCUCAUGAUUACAGCUUUGUAUGUUACUCUUAUUUAACAGGACCUCUGUUGUAUUGAUUUCUUCUGUAUCUUCCUUUUGA: 0.286 ratio

Series 3 — technique: RNA Bind-n-Seq; form: RNA; matrix: in vitro; tested at: 1 µM; setting: whole 134-nt RNA, ends assumed; with: 150 mM KCl; relative to: input library; direction: higher = stronger binding; quantity: log2 enrichment
Target: Ras GTPase-activating protein-binding protein 1, C-terminal RGG region (G3BP1, Homo sapiens, UniProt Q13283)
UniProt Q13283, sequence (whole entry, looked up): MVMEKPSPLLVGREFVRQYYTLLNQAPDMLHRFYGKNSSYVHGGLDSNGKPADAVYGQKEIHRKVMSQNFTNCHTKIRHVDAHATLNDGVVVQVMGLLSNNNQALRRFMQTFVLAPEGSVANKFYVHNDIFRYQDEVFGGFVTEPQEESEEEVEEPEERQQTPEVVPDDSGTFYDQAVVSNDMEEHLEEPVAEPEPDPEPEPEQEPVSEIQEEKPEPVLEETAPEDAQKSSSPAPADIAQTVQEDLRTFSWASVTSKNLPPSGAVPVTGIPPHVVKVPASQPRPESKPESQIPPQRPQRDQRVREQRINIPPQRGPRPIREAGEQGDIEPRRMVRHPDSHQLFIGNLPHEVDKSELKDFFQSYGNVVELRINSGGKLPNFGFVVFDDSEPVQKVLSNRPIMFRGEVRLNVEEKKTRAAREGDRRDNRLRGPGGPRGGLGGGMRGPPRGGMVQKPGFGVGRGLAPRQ
Constant ends, left off below: GGGAGUUCUACAGUCCGACGAUC … UGGAAUUCUCGGGUGUCAAGG
UCCUGUGCUACACAUCGUAUGUACCGAAUCGGGGAAAAAAGGAAAAAAGGGGAAAAAAGGAAAGUAUUAUGUUACGCCGUUCGGAUCUGC: -1.26
CUGUGCUACACAUCGUAUGUACCGAAUCGGCCCCCCCGGGCCCCCCCGGGCCCCCCCGGGGAAAGUAUUAUGUUACGCCGUUCGGAUCUG: -2.32
AAGUCCUGUGCUACACAUCGUAUGUACCGAAUCGGGCCCCGGCCCCGGGGCCCCGGGAAAGUAUUAUGUUACGCCGUUCGGAUCUGCACU: -2.37
GCAGGAAGUAAAAACAAAUGGAAAUGCUUCGGAUAGUGGCAGGGGUAAAGGUUGCUAAGGAAAGGGUGGGAUGGGAGUGGGUAAAGAGUU: 1.79
CAAGUCCUGUGCUACACAUCGUAUGUACCGAAUCGGGGUUUGGGUUUGGGGUUUGGAAAGUAUUAUGUUACGCCGUUCGGAUCUGCACUU: -1.05
GCAGGAAGUAAAAACAAAUGGAAAUGCUUCGGAUAGUGGCAGGGGUGGGGGUUACUAAGGAAAGGGUGGGAUGGGAGUGGGUAAAGAGUU: 0.792
ACUGAUGAGAGCCUGAGGAGCCAUUUUGAGCAAUGGGGAACGCUCACGGACUGUGUGGUAAGAUUUGGAAGGGACAAAGCAGUAAAACAG: -0.629
UCCUGUGCUACACAUCGUAUGUACCGAAUCAAAUUUUUUUAAAUUUAAACCCCCCCAAAAAAGUAUUAUGUUACGCCGUUCGGAUCUGCA: -0.719
ACCAUGCAGGUGGGCAUCUUUGGGAAGUGGGGCAAGGGGGGGAUCGGGAGGGGGGUAACACUUUGGGAACAGGUGGUCCCAGGUCGUUUC: 1.69
CCUCAAGUCCUGUGCUACACAUCGUAUGUACCGAAUCGGAAAGGUUUGGAGGAAAGUAUUAUGUUACGCCGUUCGGAUCUGCACUUCCAG: -0.623
UUCCAACAGUUAUGGGAUCCCAGAACCUGCUCAUGCAUACGCUCAACCUCAGACCACAACUCCUCUACCUGCAGUUUCCGGUUCUCCUGG: -0.16
CUGUGCUACACAUCGUAUGUACCGAAUCGGGGAAAAAGGGGAAAAAGGGGUUUUUUUGGGGAAAGUAUUAUGUUACGCCGUUCGGAUCUG: 0.854
CAAGUCCUGUGCUACACAUCGUAUGUACCGAAUCGGUGGUUUUUGGUUUUUUUGGAAAGUAUUAUGUUACGCCGUUCGGAUCUGCACUUC: -1.47
AGUCCUGUGCUACACAUCGUAUGUACCGAAUCGGGGAGGGGAGGGGUUUUUUUGGGGAAAGUAUUAUGUUACGCCGUUCGGAUCUGCACU: 2.15

Series 4 — technique: RNA Bind-n-Seq; form: RNA; matrix: in vitro; tested at: 20 nM; setting: 6-mer, flanks averaged, single round; with: 150 mM KCl; relative to: input library; direction: higher = stronger binding; quantity: 6-mer enrichment (R)
Target: TAR DNA-binding protein 43, full length, His tag (TARDBP, Homo sapiens, UniProt Q13148, residues 1-414)
CGCUCU: 0.575
AGGUUC: 0.665
AUUCGG: 0.816
GAACUG: 0.915
GCGAAC: 0.928
AACCUA: 0.598
GGAAAC: 0.925
GACCCU: 0.683
CGUUGC: 0.739

Some of these lines once more (series 4):
GGAAAC: 0.925
GCGAAC: 0.928
AACCUA: 0.598
GACCCU: 0.683
CGCUCU: 0.575
AUUCGG: 0.816
CGUUGC: 0.739
